Experimental data collected from several papers.
Protocols differ between the studies behind these lines. Numbers after ± are the reported error.

`CC1=C(CC(=O)Oc2ccc(-c3cc(=S)ss3)cc2)c2cc(F)ccc2/C1=C\c1ccc([S+](C)[O-])cc1` (stereo not shown) gave an IC50 of 22 µM (HepG2 and LS180; EROD activity, inhibitor; 24 h, averaged over cell lines, together with: TCDD 250 pmol).
The IC50 of `CCOCCOC(=O)Nc1cc2nc(C3CCCCC3)[nH]c2cc1N(CC)CC` is reported as over 100 µg/mL (Vero; cytotoxicity, Alamar Blue; 3 days, 37 °C).
With `C=C[C@]1(C)CC[C@H]2C(=C1C#N)c1c([nH]c3ccccc13)C2(C)C` (relative stereo) the IC50 was over 40 µM (SF-268; cytotoxicity).
The IC50 of `COc1cccc2c1C(=O)c1c(O)c3c(c(O)c1C2=O)C[C@@](O)(C(=O)CO)C[C@@H]3O[C@H]1C[C@H](N)[C@H](O)[C@H](C)O1` is reported as 5.71 µM (NIH3T3; cell growth or viability, MTT; 24 h).
`CCCN(Cc1ccccc1OC)C(=O)c1cc(F)cc(Br)c1` has an IC50 of 18 µM (HEK293; cell viability, MTT; 72 h).
The IC50 of `Cc1c(O)cc(C[C@]23C[C@H](C[C@H](C)O2)c2c4c(c(O)c(C)c2O3)CO[C@]2(CCC[C@H](C)O2)C4)c(C=O)c1O` is reported as 38 µM (IMR-90; cytotoxicity).
`CCCCOC(=O)Nc1cc2nc(C3CCCCC3)[nH]c2cc1N(CC)CCN(C)C` gave an IC50 of over 100 µg/mL (Vero; cytotoxicity, Alamar Blue; 3 days, 37 °C).
`CCCCN(Cc1ccccc1OC)C(=O)c1cc(C)c(C)s1` gave an IC50 of 24 ± 13 µM (HEK293; cell viability, MTT; 72 h).
For `CCN(CC)c1cc2[nH]c(C3CCCCC3)nc2cc1NC(=O)c1cccc(Br)c1`, the IC50 was over 100 µg/mL (Vero; cytotoxicity, Alamar Blue; 3 days, 37 °C).
The IC50 of `CCCN(Cc1ccccc1OC)C(=O)c1cc2c(s1)CCCC2` is reported as 29 to 31 µM (HEK293; cell viability, MTT; 72 h).

For quick reference, copied from above:
`CCCCN(Cc1ccccc1OC)C(=O)c1cc(C)c(C)s1` gave an IC50 of 24 ± 13 µM (HEK293; cell viability, MTT; 72 h).
